Published values pooled from the literature.
A part holds a random share of what one study measured. Changes are numbered by the printed parent chain.

Series 1
Target: Sox, HMG box (Pigoraptor chileana)
Technique: Spec-seq
Form: double-stranded DNA, one strand shown
Medium: in vitro
Tested at: not given
Setting: whole probe, mean of replicates
Relative to: not given
Reading: lower = stronger binding
Constant ends, left off below: GAGTCGTCTCGTCAGCAC … CCGTAGAGCACTCAGGTC
Residues (chain): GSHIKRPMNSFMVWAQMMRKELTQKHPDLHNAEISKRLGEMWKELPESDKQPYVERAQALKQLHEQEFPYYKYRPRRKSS
| Oligonucleotide | relative binding energy |
| --- | --- |
| CATATGC | 0.189 ln ratio |
| CGACGTT | 1.35 ln ratio |
| CCTAGTT | 0.0117 ln ratio |
| CCTTGTT | -2.2 ln ratio |
| GATGGTT | 0.953 ln ratio |
| CATAGGG | -0.409 ln ratio |
| CCGCGTT | 1.32 ln ratio |
| CATCACA | -0.0412 ln ratio |

Series 2
Target: TAR DNA-binding protein 43, full length, His tag (TARDBP, Homo sapiens, UniProt Q13148, residues 1-414)
Technique: RNA Bind-n-Seq
Form: RNA
Medium: in vitro
Tested at: 20 nM
Setting: 6-mer, flanks averaged, single round
Together with: 150 mM KCl
Relative to: input library
Reading: higher = stronger binding
| Oligonucleotide | 6-mer enrichment (R) |
| --- | --- |
| CUAGGC | 0.823 |
| GCACAG | 1.07 |
| GACACG | 1.06 |
| UACUUU | 0.602 |
| AAACCG | 0.636 |
| UGUGUC | 0.862 |
| AUACGC | 0.648 |
| GUGGAG | 3.56 |

Series 3
Target: Interferon regulatory factor 7, full length, phosphomimetic (IRF7, Homo sapiens, UniProt Q92985, residues 1-503, S101K/S471D/S472D/S475D/S476D/S477D/S483D/S484D/S487D)
Technique: protein-binding microarray
Form: double-stranded DNA, one strand shown
Medium: in vitro
Tested at: 250 nM
Setting: 60-bp whole probe
Together with: salmon DNA 0.4 mg/ml
Relative to: random background probes
Reading: higher = stronger binding
Constant ends, left off below: GCCTAGCAC … GTCTTGATTCGCTTGACGCTGCTG
Target sequence (chain): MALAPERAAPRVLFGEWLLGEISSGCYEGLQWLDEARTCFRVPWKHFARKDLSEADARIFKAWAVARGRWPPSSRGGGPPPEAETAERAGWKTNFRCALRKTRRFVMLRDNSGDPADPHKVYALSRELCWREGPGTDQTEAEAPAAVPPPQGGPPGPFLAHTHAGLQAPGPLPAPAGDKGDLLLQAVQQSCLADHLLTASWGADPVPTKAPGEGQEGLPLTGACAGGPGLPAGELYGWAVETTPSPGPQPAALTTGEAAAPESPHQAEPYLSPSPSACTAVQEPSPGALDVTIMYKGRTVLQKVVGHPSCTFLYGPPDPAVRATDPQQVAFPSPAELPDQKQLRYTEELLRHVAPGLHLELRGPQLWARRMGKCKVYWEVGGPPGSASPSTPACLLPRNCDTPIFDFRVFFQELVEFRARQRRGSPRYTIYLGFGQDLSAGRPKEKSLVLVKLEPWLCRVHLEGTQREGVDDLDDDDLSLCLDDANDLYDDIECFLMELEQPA
| Oligonucleotide | log fluorescence [z-score] |
| --- | --- |
| GTCGAACTGGGGTTTCGAGACGTGCTA | 2.63 |
| GACGGTCTCCTACTTCTGACGTGCTAG | -0.301 |
| TTAGGTATCCTTTTCCTTTCGTGCTAG | 2.22 |
| TTAGATCTCAGTTTCAATTAGTGCTAG | 1.14 |
| GACCGTTTCGGGTATCGGGACGTGCTA | 3.72 |
| GGCAATTTGAGTCACTGTGTGTGCTAG | -0.974 |
| TTAGATTTCAGTGTCGATTAGTGCTAG | 0.102 |
| TTAGAACTGAGTATCGAGTAGTGCTAG | 0.0493 |

Single results of other studies
Starting sequence: viral docking peptide; KGVKRKLFAEDSS
| Substitution | target | test | test system | setting | how to read | endpoint | result |
| --- | --- | --- | --- | --- | --- | --- | --- |
| KGVKEKLFAEDSS [R5E] | CCNA2, cyclin fold, Cln2 fusion (human) | yeast growth competition, sequencing | yeast | strong parent motif | relative to: not given, higher = stronger binding | normalised enrichment score | 0.819 |
